Measurements of several laboratories.
Each line is one published result; not all experiments were run side by side. Values joined by “and” are separate records of one study, mostly repeats; a detail may differ. Numbers after ± are the reported error.

Compound = Cc1cc(Nc2ncc(Cl)c(Nc3ccccc3S(=O)(=O)C(C)C)n2)c(OC(C)C)cc1C1CCNCC1; target or system = CLB-BAR; test = phosphoproteomics LC-MS/MS, measured: SHC3 phosphorylation; setting = 200 nM, 60 min; how to read = baseline: untreated; quantity = log2 fold change; value = -1.99
Compound = CCn1cc(-c2cc(Cn3ccoc3=N)cc3c2CCN([C@@H](C)c2cc(OC)ccn2)C3=O)c(C(F)(F)F)n1; target or system = SNU761; test = cell growth; setting = 120 h; quantity = EC50; value = > 30 µM
Compound = Clc1nc(NCc2ccco2)c2[nH]cnc2n1; target or system = FD iPSC-derived cardiomyocytes; test = alternative splicing, RNA-seq, measured: FSIP2 exon chr2(+):185799696-185809133; setting = unit not given; how to read = baseline: DMSO minus compound; quantity = ΔPSI; value = -0.488
Compound = Cn1cc(-c2ccc(-c3cncc(Cl)c3N3CCC4(CCNC4=O)CC3)cc2)cn1; target or system = COLO 205; test = gene expression, microarray, measured: AURKA mRNA; setting = concentration not given, 2 h; how to read = baseline: untreated cells; quantity = log2 fold change; value = -1.91
Compound = O=C(/C=C/C=C/C=C/C1CCCCC1)NC1=C[C@@](O)(/C=C/C=C/C=C/C(=O)NC2=C(O)CCC2=O)[C@@H]2O[C@@H]2C1=O; target or system = Fu97; test = cell growth, CellTiter-Glo; setting = 78 h; quantity = GI50; value = 28.6 µM
Compound = c1ccc2[nH]ccc2c1; target or system = HCT-8; test = RNA-seq, measured: FLRT3; setting = concentration not given; quantity = mRNA level, LS mean; value = 5.93 counts per million
Compound = CC[C@H]1CN2CCc3cc(OC)c(OC)cc3[C@@H]2C[C@@H]1C[C@H]1NCCc2cc(OC)c(OC)cc21; target or system = Toxoplasma gondii; test = parasite growth; system = HFF, bradyzoite, glutamine-induced; quantity = EC90; value = 3.05 µM
Compound = CCCCc1oc2ccccc2c1C(=O)c1cc(I)c(OCCN(CC)CC)c(I)c1; target or system = human embryonic stem cell aggregates; test = microarray; setting = 4 µM, 120 h, fold change above 1.5; quantity = up-regulated genes number; value = 279
Compound = Cn1cc(Nc2nccc(-c3ccc4c(c3)CN(C3COC3)CC[C@H]4NC(=O)c3cn(C(C)(C)C)nn3)n2)cn1; target or system = mouse splenic B cells; test = measured: PDGF signalling; setting = 30 mg/kg, IgD-activated in vivo; how to read = baseline: vehicle, direction not given; quantity = pathway activation z-score; value = 2.5
Compound = Cc1nn(-c2nc3ccc(Cl)c(Cl)c3[nH]2)c(O)c1C1OC(=O)c2ccccc21 (stereo not shown); target or system = RAW-ISG; test = IFN luciferase reporter; setting = 2.5 µM, with: HT-DNA; quantity = inhibition; value = 53.6% and 56.7% and 54.6% and 55.6% and 55.2%
Compound = COc1cnc2cccc(N3CCc4c(cc(Cn5ccnc5C)cc4-c4cn(C)nc4C(F)(F)F)C3=O)c2c1; target or system = GCIY; test = cell growth, inhibitor; setting = 120 h; quantity = EC50; value = 1.41 µM
Compound = C=CCn1c(=O)c2cnc(Nc3ccc(N4CCN(C)CC4)cc3)nc2n1-c1ccc2c(n1)[C@@](O)(CC)CC2; target or system = Kuramochi; test = flow cytometry, measured: pHH3-γH2Ax-; setting = concentration not given; quantity = G2/M cells in subpopulation; value = 83.1%
Compound = Nc1ncnc2[nH]cnc12; target or system = MCF-10A; test = CellTiter-Glo; setting = concentration not given; how to read = baseline: normalised, mean of replicates; quantity = viability; value = 150%
Compound = O=C(Nc1nnc2n3c(=S)[nH][nH]c3nc(-c3ccc(Cl)cc3)c1-2)c1ccccc1; target or system = MDA-MB-231/ATCC; test = NCI60 SRB; setting = 10 µM; quantity = growth percent; value = 67.9%
Compound = CC/C(=N\NC(=O)NCc1cccc(O)c1)c1ccc(O)c(C)c1O; target or system = SK-OV-3; test = Western blot, measured: LATS; setting = 1 µM, 1 h, 2D culture, unit not given; how to read = baseline: β-actin; quantity = protein level; value = 0.99 ± 0.41
Compound = Nc1cccc2c1C(=O)N(C1CCC(=O)NC1=O)C2=O (stereo not shown); target or system = RPMI-8226; test = flow cytometry, measured: CD35; setting = concentration not given; how to read = baseline: comparator compound alone; quantity = surface marker level; value = 41.3%
Compound = Cn1cc(-n2cnc3c(NCc4nc5cc(Cl)c(Cl)cc5[nH]4)nc(N4CCOCC4)nc32)cn1; target or system = MDA-MB-468; test = cell viability, CellCounting-Lite; setting = 222.2 nM, 37 °C; how to read = higher = more viable cells; quantity = luminescence signal; value = 31300 a.u. and 41400 a.u. and 33700 a.u.
Compound = CCn1cc(-c2cc(Cn3ccnc3)cc3c2CCN([C@H](c2cc(OC)ccn2)C2CC2)C3=O)c(C(F)(F)F)n1; target or system = SK-LU-1; test = cell growth, inhibitor; setting = 120 h; quantity = EC50; value = > 30 µM
Compound = O=C(/C=C/c1ccc(O)c(O)c1)OCCc1ccccc1; target or system = Toxoplasma gondii; test = parasite growth, luciferase reporter; system = HFF, tachyzoite; setting = 72 h; quantity = EC90; value = 15.1 µM

For quick reference, copied from above:
Compound = C=CCn1c(=O)c2cnc(Nc3ccc(N4CCN(C)CC4)cc3)nc2n1-c1ccc2c(n1)[C@@](O)(CC)CC2; target or system = Kuramochi; test = flow cytometry, measured: pHH3-γH2Ax-; setting = concentration not given; quantity = G2/M cells in subpopulation; value = 83.1%
Compound = O=C(/C=C/c1ccc(O)c(O)c1)OCCc1ccccc1; target or system = Toxoplasma gondii; test = parasite growth, luciferase reporter; system = HFF, tachyzoite; setting = 72 h; quantity = EC90; value = 15.1 µM
Compound = Cc1nn(-c2nc3ccc(Cl)c(Cl)c3[nH]2)c(O)c1C1OC(=O)c2ccccc21 (stereo not shown); target or system = RAW-ISG; test = IFN luciferase reporter; setting = 2.5 µM, with: HT-DNA; quantity = inhibition; value = 53.6% and 56.7% and 54.6% and 55.6% and 55.2%
